Results from different studies.
Lines come from different studies, so protocols differ. ± marks the error that the study gave.
TRPM8: Transient receptor potential cation channel subfamily M member 8 (TRPM8, Homo sapiens, UniProt Q7Z2W7)
Chain of UniProt Q7Z2W7 (whole entry, looked up): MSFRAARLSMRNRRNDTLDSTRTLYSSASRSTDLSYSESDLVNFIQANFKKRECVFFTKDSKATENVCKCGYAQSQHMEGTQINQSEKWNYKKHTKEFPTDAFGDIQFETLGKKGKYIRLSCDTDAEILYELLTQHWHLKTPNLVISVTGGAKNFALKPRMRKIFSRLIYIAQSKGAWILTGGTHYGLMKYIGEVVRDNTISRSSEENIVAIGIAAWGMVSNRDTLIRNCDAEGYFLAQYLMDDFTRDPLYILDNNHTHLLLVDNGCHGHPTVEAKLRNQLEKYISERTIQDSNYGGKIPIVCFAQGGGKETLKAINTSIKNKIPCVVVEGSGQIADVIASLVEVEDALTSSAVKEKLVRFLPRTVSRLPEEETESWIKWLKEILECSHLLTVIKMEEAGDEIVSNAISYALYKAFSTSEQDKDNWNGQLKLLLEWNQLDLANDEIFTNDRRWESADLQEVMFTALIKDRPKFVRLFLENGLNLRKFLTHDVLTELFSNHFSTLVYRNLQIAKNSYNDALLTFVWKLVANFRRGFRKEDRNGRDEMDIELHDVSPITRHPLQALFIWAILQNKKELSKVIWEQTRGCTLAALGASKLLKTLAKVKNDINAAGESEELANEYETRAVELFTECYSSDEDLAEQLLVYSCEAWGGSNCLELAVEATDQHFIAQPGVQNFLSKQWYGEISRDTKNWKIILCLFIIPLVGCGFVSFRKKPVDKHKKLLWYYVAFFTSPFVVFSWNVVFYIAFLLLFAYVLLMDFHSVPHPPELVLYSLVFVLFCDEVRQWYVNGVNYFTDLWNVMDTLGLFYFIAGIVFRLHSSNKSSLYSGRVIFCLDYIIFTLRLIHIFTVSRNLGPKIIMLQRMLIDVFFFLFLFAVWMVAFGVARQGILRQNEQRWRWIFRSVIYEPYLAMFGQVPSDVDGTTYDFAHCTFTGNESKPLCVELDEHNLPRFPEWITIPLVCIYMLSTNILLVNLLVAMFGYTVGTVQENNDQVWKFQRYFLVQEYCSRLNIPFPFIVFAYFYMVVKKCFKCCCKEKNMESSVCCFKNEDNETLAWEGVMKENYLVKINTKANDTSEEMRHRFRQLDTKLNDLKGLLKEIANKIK
Chain of UniProt O75460 (whole entry, looked up): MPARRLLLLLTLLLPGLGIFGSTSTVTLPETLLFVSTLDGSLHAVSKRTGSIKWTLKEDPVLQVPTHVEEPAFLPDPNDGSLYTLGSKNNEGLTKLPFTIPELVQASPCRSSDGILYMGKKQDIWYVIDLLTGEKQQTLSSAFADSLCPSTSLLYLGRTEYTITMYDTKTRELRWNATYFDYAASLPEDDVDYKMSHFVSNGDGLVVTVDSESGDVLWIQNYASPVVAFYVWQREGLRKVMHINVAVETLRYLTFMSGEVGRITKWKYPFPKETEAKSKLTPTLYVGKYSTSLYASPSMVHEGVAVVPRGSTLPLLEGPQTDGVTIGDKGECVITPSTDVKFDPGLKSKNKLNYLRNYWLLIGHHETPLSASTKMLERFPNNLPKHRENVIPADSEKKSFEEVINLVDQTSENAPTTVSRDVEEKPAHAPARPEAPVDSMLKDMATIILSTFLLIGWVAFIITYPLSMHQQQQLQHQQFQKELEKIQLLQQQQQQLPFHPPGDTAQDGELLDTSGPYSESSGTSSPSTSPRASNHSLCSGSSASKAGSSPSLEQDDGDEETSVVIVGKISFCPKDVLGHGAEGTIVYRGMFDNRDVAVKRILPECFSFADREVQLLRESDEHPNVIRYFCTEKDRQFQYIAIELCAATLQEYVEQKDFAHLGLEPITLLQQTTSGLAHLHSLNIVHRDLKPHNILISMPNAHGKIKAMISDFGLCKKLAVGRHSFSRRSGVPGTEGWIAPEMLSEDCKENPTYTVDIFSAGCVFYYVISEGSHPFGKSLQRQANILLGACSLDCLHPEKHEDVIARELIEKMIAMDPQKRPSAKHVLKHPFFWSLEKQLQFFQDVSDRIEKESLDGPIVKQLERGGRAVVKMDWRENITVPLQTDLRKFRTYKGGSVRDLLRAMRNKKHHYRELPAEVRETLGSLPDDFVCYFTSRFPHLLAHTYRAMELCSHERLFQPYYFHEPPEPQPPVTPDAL
Chain of UniProt Q8N752 (whole entry, looked up): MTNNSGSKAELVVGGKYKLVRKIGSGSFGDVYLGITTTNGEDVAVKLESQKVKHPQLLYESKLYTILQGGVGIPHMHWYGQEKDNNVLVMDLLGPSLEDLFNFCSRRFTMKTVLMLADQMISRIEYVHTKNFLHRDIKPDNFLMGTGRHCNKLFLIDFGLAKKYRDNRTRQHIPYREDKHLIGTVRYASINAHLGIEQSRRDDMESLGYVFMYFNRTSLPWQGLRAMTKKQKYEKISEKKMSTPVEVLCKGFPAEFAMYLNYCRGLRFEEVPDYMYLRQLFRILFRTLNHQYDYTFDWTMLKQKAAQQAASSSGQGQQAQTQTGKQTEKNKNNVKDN
Chain of UniProt Q9UEE5 (whole entry, looked up): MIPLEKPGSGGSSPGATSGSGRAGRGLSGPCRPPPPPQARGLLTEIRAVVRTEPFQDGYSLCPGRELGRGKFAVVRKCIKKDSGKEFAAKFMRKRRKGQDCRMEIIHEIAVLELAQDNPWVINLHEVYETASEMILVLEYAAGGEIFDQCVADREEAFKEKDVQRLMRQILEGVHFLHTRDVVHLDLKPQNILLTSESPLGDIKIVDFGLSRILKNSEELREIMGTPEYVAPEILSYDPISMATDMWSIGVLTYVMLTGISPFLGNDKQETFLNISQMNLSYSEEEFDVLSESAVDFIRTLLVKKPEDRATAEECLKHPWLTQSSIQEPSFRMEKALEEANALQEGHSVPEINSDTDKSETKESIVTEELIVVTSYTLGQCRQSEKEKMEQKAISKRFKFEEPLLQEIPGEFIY
Chain of UniProt P06493 (whole entry, looked up): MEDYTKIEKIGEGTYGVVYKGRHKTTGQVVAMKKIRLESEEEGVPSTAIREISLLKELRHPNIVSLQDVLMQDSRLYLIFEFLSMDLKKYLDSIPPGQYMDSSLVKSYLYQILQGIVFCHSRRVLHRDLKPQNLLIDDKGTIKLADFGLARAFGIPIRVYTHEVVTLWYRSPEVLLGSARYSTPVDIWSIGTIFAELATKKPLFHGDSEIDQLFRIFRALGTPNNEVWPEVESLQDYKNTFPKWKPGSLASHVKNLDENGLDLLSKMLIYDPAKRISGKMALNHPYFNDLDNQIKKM

COc1cc(Nc2ncc3c(n2)-c2ccc(Cl)cc2C(c2c(F)cccc2OC)=NC3)ccc1C(=O)O
remaining activity (RAF1; kinase activity; 1 µM): 105%

O=C(NC1CCC1)c1ccc2nc(-c3cccc(NS(=O)(=O)NCCN4CCCCC4)c3)cn2c1
remaining activity (FLT3 (Homo sapiens, UniProt P36888, D835H); enzyme activity; 10 µM): 100%

COc1ccc(F)cc1C(=O)NCc1ccc(-c2nn([C@@H](C)C(F)(F)F)c(N)c2C(N)=O)cc1
remaining activity (FLT3 (Homo sapiens, UniProt P36888); kinase activity, inhibitor, HotSpot radiometric; 100 nM, together with: ATP 10 µM): 83.2 ± 0.5%

COc1cc(F)ccc1-c1ncnc(Nc2cccc(C[S@](C)(=N)=O)c2)n1
remaining activity (STK17A (Homo sapiens, UniProt Q9UEE5); kinase activity; 10 µM, together with: 10 µM ATP): 59%

CC(=O)O/N=C1/C(c2c(O)[nH]c3cc(Br)ccc23)=Nc2ccccc21
remaining activity (TRPM8; antagonist; HEK293; 5 µM; relative to: control): 96.9 ± 9.41%

Cc1cc(Nc2cc(N3CCN(C)CC3)nc(Sc3ccc(NC(=O)C4CC4)cc3)n2)[nH]n1
remaining activity (Cyclin-dependent kinase 1, with cyclin B (CDK1, Homo sapiens, UniProt P06493); kinase activity, KinaseProfiler; 0.03 µM, species human; relative to: control): 98%

O=C(O)c1ccc(Nc2ncc3c(n2)-c2ccc(Cl)cc2C(c2c(F)cccc2F)=NC3)cc1
remaining activity (human PDGFRα(h); kinase activity; 1 µM): 110%

COc1ccc(S(=O)(=O)N(CCO)c2ccccc2CN(C)CC=Cc2ccc(Cl)cc2)cc1
remaining activity (TRPM8; antagonist; HEK293; 5 µM; relative to: control): 102 ± 14%

COc1cc(-c2cncc3c2CN(C)Cc2cc(N4CCNCC4)ccc2-3)cc(OC)c1OC
remaining activity (ERN1 (Homo sapiens, UniProt O75460); kinase activity; 1 µM, human enzyme, together with: ATP 10 µM; relative to: DMSO control): 100%

COc1cc2ncnc(Nc3ccc(O)c(Br)c3)c2cc1OC
remaining activity (TRPM8; antagonist; HEK293; 5 µM; relative to: control): 78.5 ± 7.4%

Cn1cc(-c2ccc(-c3cncc(Cl)c3N3CCC4(CCNC4=O)CC3)cc2)cn1
log2 fold change (COLO 205; gene expression, microarray, refers to: BHLHE40 mRNA; concentration not given, 6 h; relative to: untreated cells): 1.38

CCN(CC)C(=O)c1ccc(Nc2nc(OCC3CCCCC3)c3[nH]cnc3n2)cc1
remaining activity (TRPM8; antagonist; HEK293; 5 µM; relative to: control): 99.7 ± 10.4%

C=CC(=O)N1CCC[C@@H](n2nc(-c3ccc(Oc4ccccc4)cc3)c3c(N)ncnc32)C1
remaining activity (CSNK1A1L (Homo sapiens, UniProt Q8N752); 1 µM): 137%

A few entries again:
CCN(CC)C(=O)c1ccc(Nc2nc(OCC3CCCCC3)c3[nH]cnc3n2)cc1
remaining activity (TRPM8; antagonist; HEK293; 5 µM; relative to: control): 99.7 ± 10.4%

COc1cc(-c2cncc3c2CN(C)Cc2cc(N4CCNCC4)ccc2-3)cc(OC)c1OC
remaining activity (ERN1 (Homo sapiens, UniProt O75460); kinase activity; 1 µM, human enzyme, together with: ATP 10 µM; relative to: DMSO control): 100%
